Experimental data collected from several papers.
A part holds a random share of what one study measured.

Sample 1 — method: universal PBM; form: double-stranded DNA, one strand shown; sample: in vitro; tested at: 600 nM; reading: higher = stronger binding
Target: Sal-like protein 4, full length isoform A (SALL4, Homo sapiens, UniProt Q9UJQ4, residues 1-1053)
Chain of UniProt Q9UJQ4 (whole entry, looked up): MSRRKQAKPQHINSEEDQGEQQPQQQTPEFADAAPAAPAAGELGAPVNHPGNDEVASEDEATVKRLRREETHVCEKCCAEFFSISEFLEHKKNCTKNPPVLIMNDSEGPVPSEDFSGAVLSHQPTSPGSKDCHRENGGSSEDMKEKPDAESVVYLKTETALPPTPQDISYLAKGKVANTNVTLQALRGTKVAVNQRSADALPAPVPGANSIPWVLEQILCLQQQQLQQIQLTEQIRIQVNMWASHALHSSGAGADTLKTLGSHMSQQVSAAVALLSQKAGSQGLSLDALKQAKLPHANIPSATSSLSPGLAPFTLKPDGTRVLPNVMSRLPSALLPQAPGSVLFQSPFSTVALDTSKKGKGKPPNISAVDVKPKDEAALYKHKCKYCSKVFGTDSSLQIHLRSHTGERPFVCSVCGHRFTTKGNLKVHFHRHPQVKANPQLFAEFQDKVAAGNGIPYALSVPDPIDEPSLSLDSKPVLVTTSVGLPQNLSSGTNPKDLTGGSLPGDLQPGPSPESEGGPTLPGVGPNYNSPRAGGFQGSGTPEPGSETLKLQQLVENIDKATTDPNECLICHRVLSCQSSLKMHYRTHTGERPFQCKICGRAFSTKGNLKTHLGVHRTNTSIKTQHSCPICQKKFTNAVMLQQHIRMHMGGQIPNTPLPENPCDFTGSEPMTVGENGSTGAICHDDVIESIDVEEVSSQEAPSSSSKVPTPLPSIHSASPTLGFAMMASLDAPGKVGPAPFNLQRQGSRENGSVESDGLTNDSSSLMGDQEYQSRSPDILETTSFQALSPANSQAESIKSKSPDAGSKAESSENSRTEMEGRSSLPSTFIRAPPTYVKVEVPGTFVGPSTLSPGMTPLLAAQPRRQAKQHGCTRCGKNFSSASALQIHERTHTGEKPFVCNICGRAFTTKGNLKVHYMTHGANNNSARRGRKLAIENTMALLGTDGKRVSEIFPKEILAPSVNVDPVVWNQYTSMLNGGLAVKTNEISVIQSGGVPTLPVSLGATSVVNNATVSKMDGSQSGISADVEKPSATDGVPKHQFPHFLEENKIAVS
Setting: 8-mer, flanks averaged, mean of replicates
Strand | E-score
CATGACTC | -0.0804
CACATAAC | 0.252
GCACGAAA | -0.0368
GCTGCGAC | -0.0841
CGTTGAAG | -0.0501
ACTTTTGG | 0.0465

Sample 2 — method: competition protein-binding microarray; form: double-stranded DNA, one strand shown; sample: in vitro; tested at: 2 µM; together with: Cbf1 competitor, 0.05 µM; reading: higher = stronger binding
Target: Phosphate system positive regulatory protein PHO4, full length, GST-tagged (PHO4, Saccharomyces cerevisiae, UniProt P07270, residues 1-312)
Setting: whole 60-bp probe, lowest competitor level
Target sequence (chain): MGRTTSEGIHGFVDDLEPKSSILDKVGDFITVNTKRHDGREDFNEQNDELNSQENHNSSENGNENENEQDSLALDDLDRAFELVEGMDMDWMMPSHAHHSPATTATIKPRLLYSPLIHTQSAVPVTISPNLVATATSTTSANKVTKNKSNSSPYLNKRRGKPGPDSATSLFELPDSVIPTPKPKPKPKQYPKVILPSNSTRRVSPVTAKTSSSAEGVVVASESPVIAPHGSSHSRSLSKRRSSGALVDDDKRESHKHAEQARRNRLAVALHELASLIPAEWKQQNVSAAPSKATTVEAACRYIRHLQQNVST
Strand | fluorescence intensity
TAAAAGAACTAGAGCATCGTGATGGTATGATTCACTGTCTTGATTCGCTTGACGCTGCTG | 7170 a.u.
AAGAAGGGTATTTGTCACGTCAAGCCAGTGAGATGTGTCTTGATTCGCTTGACGCTGCTG | 3980 a.u.
AGATTTTCAAAATCGCATGTGATATAGTCGAAAGGGGTCTTGATTCGCTTGACGCTGCTG | 8830 a.u.

Sample 3 — method: protein binding microarray; form: double-stranded DNA, one strand shown; sample: in vitro; tested at: not given; relative to: not given; reading: higher = stronger binding
Target: Histone acetyltransferase KAT6A, winged helix 1, GST fusion (KAT6A, Homo sapiens, UniProt Q92794, residues 1-85)
Setting: 8-mer, flanks averaged, mean of 2 arrays, mostly near background
Target sequence (chain): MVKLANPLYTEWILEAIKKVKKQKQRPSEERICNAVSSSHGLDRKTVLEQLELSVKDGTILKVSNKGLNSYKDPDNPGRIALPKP
Strand | E-score
CATTGGTC | -0.176
CGACCTAA | 0.0062
ATGATATA | -0.0897

Mixed results
Substance | target | test | system | setting | scale | measurement | value
PhoQ, residues 284 288 289 292 302 303 SLGVVW | PhoP, residues 12 14 15 18 19 VHSCL (Escherichia coli, UniProt P23836) | Sort-seq, item: YFP reporter | E. coli | PhoQ-PhoP variant library, together with: 10 µM Mg2+ | relative to: high Mg2+ state, higher = stronger signaling | fold induction | 25.5

For quick reference, copied from above (sample 2):
Strand | fluorescence intensity
AGATTTTCAAAATCGCATGTGATATAGTCGAAAGGGGTCTTGATTCGCTTGACGCTGCTG | 8830 a.u.
